Published values collected from several papers.
Parts stem from different laboratories: compare values within a part only.
Chain of UniProt P54646 (whole entry, looked up): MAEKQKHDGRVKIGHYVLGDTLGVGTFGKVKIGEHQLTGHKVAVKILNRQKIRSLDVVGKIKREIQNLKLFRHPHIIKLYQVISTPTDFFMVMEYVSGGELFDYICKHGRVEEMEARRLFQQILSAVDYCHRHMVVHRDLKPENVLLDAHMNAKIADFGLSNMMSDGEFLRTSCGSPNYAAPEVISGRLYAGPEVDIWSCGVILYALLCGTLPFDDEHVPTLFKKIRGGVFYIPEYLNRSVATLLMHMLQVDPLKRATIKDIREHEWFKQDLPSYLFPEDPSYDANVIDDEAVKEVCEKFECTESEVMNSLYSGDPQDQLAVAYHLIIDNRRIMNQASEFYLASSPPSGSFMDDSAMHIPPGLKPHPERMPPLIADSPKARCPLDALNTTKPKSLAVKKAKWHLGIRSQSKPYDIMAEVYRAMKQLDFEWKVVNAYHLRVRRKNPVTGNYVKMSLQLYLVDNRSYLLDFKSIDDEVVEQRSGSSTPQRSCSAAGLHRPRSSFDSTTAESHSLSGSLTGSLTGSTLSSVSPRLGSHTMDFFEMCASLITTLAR
Chain of UniProt P37173 (whole entry, looked up): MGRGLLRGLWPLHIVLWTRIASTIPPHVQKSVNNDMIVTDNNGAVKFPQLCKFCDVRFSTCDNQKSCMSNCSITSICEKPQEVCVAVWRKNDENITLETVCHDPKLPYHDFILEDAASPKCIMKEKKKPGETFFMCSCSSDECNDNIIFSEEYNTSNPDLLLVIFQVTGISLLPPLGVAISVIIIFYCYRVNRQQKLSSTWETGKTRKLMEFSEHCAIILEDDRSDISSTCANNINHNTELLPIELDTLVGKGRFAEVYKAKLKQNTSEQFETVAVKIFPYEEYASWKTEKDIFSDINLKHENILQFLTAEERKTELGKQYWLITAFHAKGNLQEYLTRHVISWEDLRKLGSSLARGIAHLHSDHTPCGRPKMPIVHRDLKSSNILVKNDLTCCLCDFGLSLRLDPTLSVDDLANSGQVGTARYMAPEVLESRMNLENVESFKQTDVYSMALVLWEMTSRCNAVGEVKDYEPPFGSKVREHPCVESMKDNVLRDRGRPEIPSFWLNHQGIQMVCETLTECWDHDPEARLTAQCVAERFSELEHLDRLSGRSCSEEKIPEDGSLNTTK
Chain of UniProt P42336 (whole entry, unmodified, looked up): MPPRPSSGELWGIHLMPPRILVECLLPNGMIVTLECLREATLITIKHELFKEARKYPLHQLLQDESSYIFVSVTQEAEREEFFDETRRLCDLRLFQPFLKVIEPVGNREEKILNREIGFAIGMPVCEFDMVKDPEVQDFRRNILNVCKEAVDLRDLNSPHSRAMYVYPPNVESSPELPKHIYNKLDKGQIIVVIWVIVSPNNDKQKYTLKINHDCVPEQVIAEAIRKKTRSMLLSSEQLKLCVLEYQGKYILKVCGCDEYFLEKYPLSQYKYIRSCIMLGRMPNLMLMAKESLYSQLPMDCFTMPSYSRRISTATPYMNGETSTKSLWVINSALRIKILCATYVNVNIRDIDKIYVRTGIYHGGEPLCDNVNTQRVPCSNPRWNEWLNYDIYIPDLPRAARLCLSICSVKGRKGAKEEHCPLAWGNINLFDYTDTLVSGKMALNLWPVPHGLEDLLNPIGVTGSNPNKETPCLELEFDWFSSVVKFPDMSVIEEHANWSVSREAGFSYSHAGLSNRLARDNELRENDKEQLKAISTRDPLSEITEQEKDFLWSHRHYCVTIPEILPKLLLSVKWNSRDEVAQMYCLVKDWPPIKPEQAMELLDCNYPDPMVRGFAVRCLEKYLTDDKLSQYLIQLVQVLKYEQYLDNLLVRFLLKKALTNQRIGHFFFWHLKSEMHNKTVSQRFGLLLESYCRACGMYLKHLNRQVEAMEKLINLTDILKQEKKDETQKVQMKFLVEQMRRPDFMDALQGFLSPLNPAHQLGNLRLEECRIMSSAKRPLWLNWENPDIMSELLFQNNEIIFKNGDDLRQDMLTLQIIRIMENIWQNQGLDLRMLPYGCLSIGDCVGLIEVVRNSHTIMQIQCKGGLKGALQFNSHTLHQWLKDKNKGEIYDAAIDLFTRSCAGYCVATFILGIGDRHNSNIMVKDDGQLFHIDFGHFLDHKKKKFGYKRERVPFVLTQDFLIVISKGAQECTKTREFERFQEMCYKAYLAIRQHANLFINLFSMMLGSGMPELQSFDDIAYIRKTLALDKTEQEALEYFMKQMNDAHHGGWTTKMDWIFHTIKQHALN
Chain of UniProt Q00526 (whole entry, looked up): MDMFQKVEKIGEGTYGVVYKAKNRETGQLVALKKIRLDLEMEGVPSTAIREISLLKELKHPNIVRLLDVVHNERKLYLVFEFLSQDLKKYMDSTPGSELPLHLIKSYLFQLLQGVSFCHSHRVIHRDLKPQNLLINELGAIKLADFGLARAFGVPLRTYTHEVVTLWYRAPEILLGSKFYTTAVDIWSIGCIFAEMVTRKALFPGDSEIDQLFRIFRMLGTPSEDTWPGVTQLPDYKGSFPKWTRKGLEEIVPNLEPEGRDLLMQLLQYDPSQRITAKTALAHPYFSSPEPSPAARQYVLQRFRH
Chain of UniProt Q9Y2H9 (whole entry, looked up): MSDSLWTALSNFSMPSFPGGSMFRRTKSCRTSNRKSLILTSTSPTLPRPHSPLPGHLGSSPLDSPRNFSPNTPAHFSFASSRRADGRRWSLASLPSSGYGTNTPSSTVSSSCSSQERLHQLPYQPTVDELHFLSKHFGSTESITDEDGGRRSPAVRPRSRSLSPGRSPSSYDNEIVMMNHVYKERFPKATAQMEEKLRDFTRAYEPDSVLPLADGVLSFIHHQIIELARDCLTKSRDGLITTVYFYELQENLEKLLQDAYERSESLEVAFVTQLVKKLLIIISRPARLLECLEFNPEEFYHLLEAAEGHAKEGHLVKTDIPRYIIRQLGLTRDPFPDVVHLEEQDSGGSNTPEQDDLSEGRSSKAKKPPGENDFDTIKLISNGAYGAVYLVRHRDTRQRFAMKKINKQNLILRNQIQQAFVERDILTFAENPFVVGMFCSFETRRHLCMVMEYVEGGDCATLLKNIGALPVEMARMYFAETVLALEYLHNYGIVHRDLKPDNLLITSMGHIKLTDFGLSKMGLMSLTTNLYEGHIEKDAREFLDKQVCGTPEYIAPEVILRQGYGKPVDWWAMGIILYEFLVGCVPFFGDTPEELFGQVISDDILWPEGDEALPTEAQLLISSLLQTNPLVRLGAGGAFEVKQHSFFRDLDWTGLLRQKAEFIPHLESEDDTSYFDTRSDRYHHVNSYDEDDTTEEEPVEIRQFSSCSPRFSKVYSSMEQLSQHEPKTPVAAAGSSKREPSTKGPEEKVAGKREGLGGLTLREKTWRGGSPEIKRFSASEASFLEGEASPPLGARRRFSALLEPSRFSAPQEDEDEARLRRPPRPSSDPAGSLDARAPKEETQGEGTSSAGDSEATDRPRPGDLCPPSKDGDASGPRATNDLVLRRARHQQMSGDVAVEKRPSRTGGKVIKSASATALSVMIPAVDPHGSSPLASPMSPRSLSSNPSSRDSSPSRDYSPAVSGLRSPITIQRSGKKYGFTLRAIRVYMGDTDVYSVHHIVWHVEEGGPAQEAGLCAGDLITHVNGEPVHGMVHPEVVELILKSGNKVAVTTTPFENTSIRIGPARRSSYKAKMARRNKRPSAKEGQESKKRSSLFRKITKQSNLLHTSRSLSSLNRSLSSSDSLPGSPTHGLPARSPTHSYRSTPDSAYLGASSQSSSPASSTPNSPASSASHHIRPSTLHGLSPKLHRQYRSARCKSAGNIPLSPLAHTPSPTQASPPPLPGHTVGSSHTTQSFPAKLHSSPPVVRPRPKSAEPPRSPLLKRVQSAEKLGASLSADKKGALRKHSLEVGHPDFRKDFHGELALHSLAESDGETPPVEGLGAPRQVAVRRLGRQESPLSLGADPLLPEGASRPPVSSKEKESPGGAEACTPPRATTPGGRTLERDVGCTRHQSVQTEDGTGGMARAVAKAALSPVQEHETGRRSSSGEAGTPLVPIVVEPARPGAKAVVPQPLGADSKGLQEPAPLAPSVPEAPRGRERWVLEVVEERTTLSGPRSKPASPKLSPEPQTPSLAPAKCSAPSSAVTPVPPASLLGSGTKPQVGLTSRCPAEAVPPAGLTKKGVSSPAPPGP

Study 1 — read-out: enzyme activity; action: inhibitor; tested at: 0.5 µM; relative to: control; quantity: remaining activity
Target: Ephrin type-A receptor 6 (EPHA6, Homo sapiens, UniProt Q9UF33)
Construct (Q9UF33 1-1036): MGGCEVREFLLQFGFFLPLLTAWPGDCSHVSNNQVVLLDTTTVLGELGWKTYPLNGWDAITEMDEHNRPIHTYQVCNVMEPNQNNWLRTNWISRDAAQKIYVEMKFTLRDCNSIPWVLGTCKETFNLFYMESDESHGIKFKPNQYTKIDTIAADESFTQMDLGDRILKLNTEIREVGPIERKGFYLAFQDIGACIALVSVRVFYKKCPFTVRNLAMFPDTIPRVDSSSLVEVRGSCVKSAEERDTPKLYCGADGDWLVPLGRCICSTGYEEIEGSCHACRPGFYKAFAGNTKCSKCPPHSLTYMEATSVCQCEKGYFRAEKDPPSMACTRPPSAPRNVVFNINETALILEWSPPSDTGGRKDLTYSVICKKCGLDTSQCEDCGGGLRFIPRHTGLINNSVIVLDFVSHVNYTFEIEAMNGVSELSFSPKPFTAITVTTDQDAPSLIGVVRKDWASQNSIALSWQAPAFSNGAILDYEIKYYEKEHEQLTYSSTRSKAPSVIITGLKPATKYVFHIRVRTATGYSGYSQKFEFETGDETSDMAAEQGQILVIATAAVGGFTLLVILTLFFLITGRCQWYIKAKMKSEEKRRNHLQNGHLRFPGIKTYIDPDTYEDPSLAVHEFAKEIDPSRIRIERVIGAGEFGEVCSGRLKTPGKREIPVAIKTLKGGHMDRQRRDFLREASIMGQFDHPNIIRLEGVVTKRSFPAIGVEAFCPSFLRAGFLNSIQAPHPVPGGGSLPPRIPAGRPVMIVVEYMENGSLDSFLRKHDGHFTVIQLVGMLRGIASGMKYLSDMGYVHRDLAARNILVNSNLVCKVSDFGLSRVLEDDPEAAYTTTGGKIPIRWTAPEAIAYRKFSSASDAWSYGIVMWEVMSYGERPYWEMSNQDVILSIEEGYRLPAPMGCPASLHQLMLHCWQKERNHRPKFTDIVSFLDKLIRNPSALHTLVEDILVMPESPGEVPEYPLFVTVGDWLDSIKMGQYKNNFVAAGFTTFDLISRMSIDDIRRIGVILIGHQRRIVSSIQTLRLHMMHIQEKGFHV
Oc1ccc(-c2nc(-c3ccncc3)c(-c3ccc(F)cc3)[nH]2)cc1: 57.3%
C#Cc1cccc(Nc2ncnc3cc(OCCOC)c(OCCOC)cc23)c1: 40.4%
CO[C@H]1C[C@@H]2CC[C@@H](C)[C@@](O)(O2)C(=O)C(=O)N2CCCC[C@H]2C(=O)O[C@H]([C@H](C)C[C@@H]2CC[C@@H](O)[C@H](OC)C2)CC(=O)[C@H](C)/C=C(\C)[C@@H](O)[C@@H](OC)C(=O)[C@H](C)C[C@H](C)/C=C/C=C/C=C/1C: 99%
COc1cc2nccc(Oc3ccc(NC(=S)NC(=O)c4ccccc4C)cc3)c2cc1OC: 33%
CCOC(=O)c1c(C)[nH]c(/C=C2\C(=O)Nc3ccccc32)c1C: 80%
Nc1ccc2ncnc(NCCc3ccc(Oc4ccccc4)cc3)c2c1: 92.8%
COc1cc2ncnc(Nc3ccc(Oc4ccccc4)cc3)c2cc1OC: 64.8%
Cc1cccc(-c2[nH]c(C(C)(C)C)nc2-c2ccc3c(c2)OCO3)n1: 92.7%
COc1cc2ncnc(Nc3ccc(F)c(Cl)c3)c2cc1OCCCN1CCOCC1: 28.9%
Cc1nc(-c2ccccc2)c(-c2ccncc2)o1: 95.9%
O=C(CCCc1ccc(-c2ccccc2F)cc1)Nc1ccc(O)cc1: 89.6%
N#CC(C#N)=C(N)/C(C#N)=C/c1ccc(O)cc1: 98.6%
O=C1NC(=O)C(c2cn(CCCn3ccnc3)c3ccccc23)=C1Nc1ccccc1: 106%
Cc1ccc(NC(=O)c2ccc(CN3CCN(C)CC3)cc2)cc1Nc1nc(-c2cccnc2)cs1: 98.2%
NCCNc1ncc(C(N)=O)c(Nc2cccc(C(F)(F)F)c2)n1: 96.9%
O=C(O)c1ccc2c3c1cccc3c(=O)n1c3ccccc3nc21: 105%
Nc1ncnc2n[nH]c(Nc3ccc(F)cc3)c12: 49.3%

Study 2 — action: antagonist; quantity: IC50
Target: Beta-1 adrenergic receptor (ADRB1, Homo sapiens, UniProt P08588)
Chain of UniProt P08588 (whole entry, looked up): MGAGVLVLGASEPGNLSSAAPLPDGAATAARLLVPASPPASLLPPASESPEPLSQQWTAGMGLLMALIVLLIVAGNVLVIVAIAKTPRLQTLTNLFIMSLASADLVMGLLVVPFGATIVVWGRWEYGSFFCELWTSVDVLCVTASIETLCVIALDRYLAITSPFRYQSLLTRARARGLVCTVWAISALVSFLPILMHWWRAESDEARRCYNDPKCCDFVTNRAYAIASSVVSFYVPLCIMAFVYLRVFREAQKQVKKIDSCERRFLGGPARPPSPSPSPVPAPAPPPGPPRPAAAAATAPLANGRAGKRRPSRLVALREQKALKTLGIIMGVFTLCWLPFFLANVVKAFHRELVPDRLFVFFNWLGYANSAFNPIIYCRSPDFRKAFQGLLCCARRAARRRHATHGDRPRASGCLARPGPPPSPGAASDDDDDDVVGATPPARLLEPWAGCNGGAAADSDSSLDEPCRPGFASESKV
CCCCNCc1ccc(OCC(O)CN2CCSCC2)c(OC)c1 (stereo not drawn): ≥ 100 µM
Cc1noc2c(-c3ccc([S+](C)(=O)[O-])cc3)cc(-c3ccc(F)cc3)nc12: ≥ 100 µM
CC(C)CN1C(=O)COC[C@@H]1[C@H](O)c1ccc(NC(=O)Cc2ccccc2)cc1: ≥ 100 µM
N#Cc1cc2c(nc1N1CCCC(COc3ncccc3C(F)(F)F)C1)CCOC2 (stereo not drawn): ≥ 100 µM
CC(C)N1CCN(c2cc(-c3ccccc3)c3ccccc3n2)CC1: ≥ 100 µM

Study 3 — read-out: cell-free assay; technique: competition with immobilised ligand; tested at: 1 µM; quantity: remaining binding
SMILES: CN(c1ccnc(CNc2nc(Nc3ccc4c(c3)CC(=O)N4)ncc2C(F)(F)F)n1)S(C)(=O)=O
5'-AMP-activated protein kinase catalytic subunit alpha-2 (PRKAA2, Homo sapiens, UniProt P54646): 87%
Serine/threonine-protein kinase mTOR (MTOR, Homo sapiens, UniProt P42345): 94%
TGF-beta receptor type-2 (TGFBR2, Homo sapiens, UniProt P37173): 100%
Cyclin-dependent kinase 3 (CDK3, Homo sapiens, UniProt Q00526): 90%
Phosphatidylinositol 4,5-bisphosphate 3-kinase catalytic subunit alpha isoform (PIK3CA, Homo sapiens, UniProt P42336, C420R): 91%
Microtubule-associated serine/threonine-protein kinase 1 (MAST1, Homo sapiens, UniProt Q9Y2H9): 69%

Study 4 — host: mouse; matrix: microsomes or S9; tested at: 2 µM; time: 0.5 h; quantity: remaining compound
COc1cc(=O)n2c(c1C(=O)NCc1ccc(F)cc1Cl)CCCC2: 43.1%
COC(=O)c1ccc(C(=O)Nc2cc(F)ccc2NC(C)C)[nH]1: 7.58%
CCc1cnc(N2CCC(Oc3cc(=O)n(-c4ccc(OC)nc4)c(=O)n3C)CC2)nc1: > 100%
Cc1cc([S+]([O-])c2ccccc2)c(C)n1S(=O)(=O)c1ccccc1 (stereo not drawn): 2.25%
CCOP(=O)(Cc1ccc(-c2ccccc2OC)cn1)OCC: 0.477%
CON(C)c1nc(OCCNC(=O)OCc2ccc(Cl)cc2C)nc(N(C)C)n1: 1.74%
Cc1ccc(S(=O)(=O)Nc2nc(C)cc(=O)[nH]2)cc1: 79.3%
Oc1ccc(/C=C/c2c3c(cc4c2[C@H](c2cc(O)cc(O)c2)[C@@H](c2ccc(O)cc2)O4)O[C@H](c2ccc(O)cc2)[C@H]3c2cc(O)cc(O)c2)cc1: 53.5%

Excerpt of the above (study 4):
COC(=O)c1ccc(C(=O)Nc2cc(F)ccc2NC(C)C)[nH]1: 7.58%
CCc1cnc(N2CCC(Oc3cc(=O)n(-c4ccc(OC)nc4)c(=O)n3C)CC2)nc1: > 100%
Cc1cc([S+]([O-])c2ccccc2)c(C)n1S(=O)(=O)c1ccccc1 (stereo not drawn): 2.25%
CCOP(=O)(Cc1ccc(-c2ccccc2OC)cn1)OCC: 0.477%
CON(C)c1nc(OCCNC(=O)OCc2ccc(Cl)cc2C)nc(N(C)C)n1: 1.74%
